Published values of several laboratories.
A part holds a random share of what one study measured. Changes are numbered by the printed parent chain.

Study 1
Target: ABI1, truncated, D143A, DHFR fusion (Arabidopsis thaliana)
Technique: DHFR PCA, deep sequencing
Matrix: yeast
Setting: methotrexate growth selection, single substitutions
Together with: (+)-ABA 4.8 µM
Baseline: wild-type fitted maximum
Reading: higher = stronger binding
Parent: PYL1, truncated, DHFR fusion (Arabidopsis thaliana); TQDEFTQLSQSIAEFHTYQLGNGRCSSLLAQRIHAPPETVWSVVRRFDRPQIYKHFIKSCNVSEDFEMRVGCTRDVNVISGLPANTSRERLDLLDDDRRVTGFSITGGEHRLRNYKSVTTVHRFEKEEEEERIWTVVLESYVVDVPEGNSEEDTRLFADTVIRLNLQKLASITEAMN; partner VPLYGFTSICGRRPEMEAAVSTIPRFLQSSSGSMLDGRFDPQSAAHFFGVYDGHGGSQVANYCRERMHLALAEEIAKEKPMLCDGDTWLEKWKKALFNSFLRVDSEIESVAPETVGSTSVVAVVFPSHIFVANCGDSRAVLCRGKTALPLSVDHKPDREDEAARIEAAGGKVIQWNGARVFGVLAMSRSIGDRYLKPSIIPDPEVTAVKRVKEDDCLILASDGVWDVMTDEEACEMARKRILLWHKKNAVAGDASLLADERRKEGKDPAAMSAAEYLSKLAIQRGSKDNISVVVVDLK
For `H122E`, “relative binding score” read 22.9%.
`F66W` — result for “relative binding score”: 57.2%.
For `L82T`, “relative binding score” read -0.0749%.
`G108P` — result for “relative binding score”: -7.66%.
Under “relative binding score”, `E109Q` is recorded as 66.6%.
`Q167M`: “relative binding score” 71.9%.
`S140C`: “relative binding score” -7.32%.
Under “relative binding score”, `L28P` is recorded as 7.41%.
`T106S` — result for “relative binding score”: 14.2%.
`G107L`: “relative binding score” 1.47%.
For `V70I`, “relative binding score” read 70%.
`I105G`: “relative binding score” -5.94%.
For `K58P`, “relative binding score” read 5.23%.
Under “relative binding score”, `S63I` is recorded as 56.8%.
`N149G` — result for “relative binding score”: 28.4%.
For `R45Q`, “relative binding score” read -17.4%.
`V78W`: “relative binding score” 55.8%.
For `Y115T`, “relative binding score” read -7.36%.
Under “relative binding score”, `S59Y` is recorded as 32%.
`F15T` — result for “relative binding score”: -4.55%.
Under “relative binding score”, `D153V` is recorded as -0.928%.
For `R46Q`, “relative binding score” read 72.4%.
For `K54L`, “relative binding score” read -5.81%.
`S26W` — result for “relative binding score”: 39.3%.
`R49P`: “relative binding score” 1.38%.

Study 2
Target: CCNE1, cyclin fold, Cln2 fusion (human)
Technique: yeast growth competition, sequencing
Matrix: yeast
Setting: strong parent motif
Baseline: not given
Reading: higher = stronger binding
Parent: PKN2 docking peptide (human); VSAVRKLDFSDTM; partner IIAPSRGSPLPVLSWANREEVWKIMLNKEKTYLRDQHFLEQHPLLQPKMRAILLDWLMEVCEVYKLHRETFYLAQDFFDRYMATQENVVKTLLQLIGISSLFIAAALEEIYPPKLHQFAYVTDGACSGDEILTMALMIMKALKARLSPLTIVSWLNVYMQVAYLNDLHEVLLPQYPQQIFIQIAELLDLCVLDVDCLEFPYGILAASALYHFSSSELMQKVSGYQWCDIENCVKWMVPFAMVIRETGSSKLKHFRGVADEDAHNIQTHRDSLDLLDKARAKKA
`S2K`: “normalised enrichment score” 6.
For `S2W`, “normalised enrichment score” read 3.9.
For `T12E`, “normalised enrichment score” read 5.46.
`V4Q`: “normalised enrichment score” 2.23.
`A3N` — result for “normalised enrichment score”: 0.208.
`F9A`: “normalised enrichment score” 0.014.
`F9Y` — result for “normalised enrichment score”: 1.79.
Under “normalised enrichment score”, `F9I` is recorded as 0.298.
Under “normalised enrichment score”, `S10Q` is recorded as 5.26.
`V4E` — result for “normalised enrichment score”: 0.302.
`V4K` — result for “normalised enrichment score”: 5.61.
`D8W` — result for “normalised enrichment score”: 3.45.
For `T12Q`, “normalised enrichment score” read 5.31.
`D11G`: “normalised enrichment score” 5.23.
`S2F` — result for “normalised enrichment score”: 4.22.
Under “normalised enrichment score”, `S2P` is recorded as 5.32.
`T12K`: “normalised enrichment score” 5.38.
`D8P`: “normalised enrichment score” 0.685.
`S2Q`: “normalised enrichment score” 4.85.
`A3M` — result for “normalised enrichment score”: 2.3.
For `F9H`, “normalised enrichment score” read -0.0244.
For `S10N`, “normalised enrichment score” read 5.14.
For `F9G`, “normalised enrichment score” read 0.16.
For `S2Y`, “normalised enrichment score” read 4.53.
`L7A`: “normalised enrichment score” 0.0658.

Study 3
Target: RNA binding protein fox-1 homolog 2, RRM domain, GST-SBP tag (RBFOX2, Homo sapiens, UniProt O43251-10, residues 100-194)
Technique: RNA Bind-n-Seq
Form: RNA
Matrix: in vitro
Tested at: 365 nM
Setting: natural RNA segment, single round, ends assumed
Baseline: no-protein control
Reading: higher = stronger binding
Residues (chain): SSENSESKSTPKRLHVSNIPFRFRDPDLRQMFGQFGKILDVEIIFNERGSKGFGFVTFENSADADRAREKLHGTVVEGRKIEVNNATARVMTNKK
Under “RBNS enrichment (R)”, `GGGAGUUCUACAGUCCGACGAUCCAGACAUCACCAAGUCUCGUCUUCUUUCCUUCCUGUGAGUUGAAACCAAACAGGCCUCUCGCUCACUCCUCCCAGCCCAGUAAUGCUGAGGAGUUCAGUUGUGAGGAAAGUGGAAUUCUCGGGUGCCAA` is recorded as 0.207.
`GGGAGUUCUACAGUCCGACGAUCACACUCACCUGCUCCCUUUCGUUCCGCUUGUCUUGGCAGUUGACAAGACAUUCGUUUGCUUUAGUGAAACUCCCUCGCUCCAGCCUCUCUAAGUAGCUCUUCCCGCUGUGUGGAAUUCUCGGGUGCCAA`: “RBNS enrichment (R)” 0.783.
Under “RBNS enrichment (R)”, `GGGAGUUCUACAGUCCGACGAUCAAAGCAUAGAUUGCACAGGAAGGUAUGAGUACAAAUACUGUAAUGCAUAACUUGUUAUUGUCCUAGAUGUGUUUGAUAUUUUUCCUUUACAACUGAAUGCUAUAAAAGUGUGGAAUUCUCGGGUGCCAA` is recorded as 0.568.
`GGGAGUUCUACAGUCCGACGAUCUAACUAAGUAGCAUUUAAAAUCAAGAUAGAGCAUUCCUUCUUGUAUCAGUGGGGCAGUGUUACCAUAAACACGGUGUAUAUGUUGUUAAACCCUAUGAAGAGUAACAGUGUGGAAUUCUCGGGUGCCAA` — result for “RBNS enrichment (R)”: 0.566.
Under “RBNS enrichment (R)”, `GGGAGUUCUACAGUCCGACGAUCCUGGGCUGGGUCCGGUGGCUCACGCCUGUAAUCCCAGCAAUUUGGGAGUCCGAGGCGGGCGGAUCACUCGAGGUCAGGAGUUCCAGACCAGCCUGACCAAAAUGGUGAAAUGGAAUUCUCGGGUGCCAA` is recorded as 0.516.
`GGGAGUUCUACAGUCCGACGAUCAAUCUCUAUGUAUAUUCUAUUUUAUUAAAUUAAUUGAAUCUAGUAUAUGCUGGAUGUACGACAUUUUGUGACUGAAGAGACUUGGUUCCUUCUUCUUUUAUGUGUCUCAGUGGAAUUCUCGGGUGCCAA` — result for “RBNS enrichment (R)”: 0.538.
`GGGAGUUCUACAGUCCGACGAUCUAUCCACACUCACAUUUCAGAGUCCUGACUCUCAAGGAACCACUGGUUUUUGGGAUAGAACUUGGGCCAGGGCUAGGAACACAGGCUCCACGGUGACAUGUCAUUUGAUUUGGAAUUCUCGGGUGCCAA` — result for “RBNS enrichment (R)”: 0.322.
For `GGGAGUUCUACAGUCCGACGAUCACCGGCAACUGCAUGUACCUCCUCCCUUUCUCAUUUCCAAUGAUGUACCCUGUACACGUGUUCAUGCUGUGUCUGGCUCUCAUCUGCACAAUCGUGCAUAGAAUUGCCUCUGGAAUUCUCGGGUGCCAA`, “RBNS enrichment (R)” read 0.743.
`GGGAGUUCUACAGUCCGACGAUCCUCCUACCUGUGAGGUCCCAUCGUGAGUCACUGGGAUUUGUGUUGCAUGGAAGGCAGUCUUUCCUGUUGUAAAUCUUCCUUUUUUAUGUACAAAUAUUUUGAAAAAUAUGUGGAAUUCUCGGGUGCCAA` — result for “RBNS enrichment (R)”: 1.01.
`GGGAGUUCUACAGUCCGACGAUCCUUCUGAAAGCACUAAGUUUUCAGUUUUGGAGUUACUUCUCCCUUGCCUCUGACACACUGCACACGUCUAGAGGCUGUAAUUGGAAAUAGGCUUUUGGUUUCCUGUGCCAUGGAAUUCUCGGGUGCCAA` — result for “RBNS enrichment (R)”: 0.792.
`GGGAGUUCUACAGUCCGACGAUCAGCGUAAUGAUUAAGUUAUUCAUCACCAGGCUGUAAGCAAUAUCUUGAGUUUGUAGCUUAGAAUUGGGAGGAUACUUAACAUCUGGAAGACAAGUUCAUUUCAUCUUGAGUGGAAUUCUCGGGUGCCAA` — result for “RBNS enrichment (R)”: 0.396.
`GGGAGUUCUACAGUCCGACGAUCAGUCUUAUCAGCAAAUUACUCUGGCCACUCUUGGAGCUAGAUAUUUUCCAAAUUUUCUCUGAAGGUGAGUUUUAUAUCAAUAAGUAUGAAUAGAGAUUUACUUUAGGGGUUGGAAUUCUCGGGUGCCAA`: “RBNS enrichment (R)” 0.56.

Study 4
Target: ATF2, bZIP domain (human)
Technique: DHFR protein complementation
Matrix: yeast
Setting: single substitutions, most at no-binding floor
Baseline: wild-type JUN-FOS pair
Reading: higher = stronger binding
Parent: JUN, bZIP domain (human); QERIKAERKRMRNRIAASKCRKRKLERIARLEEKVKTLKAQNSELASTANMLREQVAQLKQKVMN; partner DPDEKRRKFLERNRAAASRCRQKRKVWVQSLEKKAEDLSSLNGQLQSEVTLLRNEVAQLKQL
The binding fitness of `L52M` is reported as -1.4 natural log.
`S43P` gave a binding fitness of -1.53 natural log.
The binding fitness of `A29F` is reported as -1.36 natural log.
For `E44V`, the binding fitness was -1.4 natural log.
`N42E` gave a binding fitness of -1.46 natural log.
`E54N` has a binding fitness of -1.33 natural log.
For `K34H`, the binding fitness was -1.34 natural log.
The binding fitness of `L38I` is reported as -1.45 natural log.
`T37D` has a binding fitness of -1.44 natural log.
With `K36C` the binding fitness was -1.32 natural log.
With `S47D` the binding fitness was -1.36 natural log.
For `L38C`, the binding fitness was -1.5 natural log.
The binding fitness of `K39C` is reported as -1.44 natural log.
`Q41M` gave a binding fitness of -1.36 natural log.
With `S43Q` the binding fitness was -1.26 natural log.
With `E44G` the binding fitness was -1.35 natural log.

Study 5
Substance: PhoQ, residues 284 288 289 292 302 303 TNASYF
Technique: Sort-seq
Refers to: YFP reporter
Matrix: E. coli
Setting: PhoQ-PhoP variant library
Together with: 10 µM Mg2+
Baseline: high Mg2+ state
Reading: higher = stronger signaling
It gave 2.57 for fold induction (PhoP, residues 12 14 15 18 19 TPWTL (Escherichia coli, UniProt P23836)).
PhoP, residues 12 14 15 18 19 LHHYF (Escherichia coli, UniProt P23836) — fold induction: 13.6.
The fold induction was 4.49 (PhoP, residues 12 14 15 18 19 VGHWL (Escherichia coli, UniProt P23836)).
PhoP, residues 12 14 15 18 19 NFFVT (Escherichia coli, UniProt P23836) — fold induction: 7.24.

Study 6
Target: CEP164, C-terminal peptide (human)
Technique: DHFR complementation, deep sequencing
Matrix: yeast
Setting: single substitutions, model-inferred values
Baseline: wild type
Reading: higher = weaker binding
Parent: PDZK1, PDZ domain 2 (human); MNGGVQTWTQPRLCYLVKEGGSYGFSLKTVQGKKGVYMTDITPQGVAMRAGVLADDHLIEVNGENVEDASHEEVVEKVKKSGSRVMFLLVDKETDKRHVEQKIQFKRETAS; partner HNRVKVYRF
For `E76M`, “binding free energy change” read 0.0939 kcal/mol.
Under “binding free energy change”, `Q101V` is recorded as 0.058 kcal/mol.
`R97A` — result for “binding free energy change”: -0.103 kcal/mol.
Under “binding free energy change”, `A50R` is recorded as 0.491 kcal/mol.
`Q101K`: “binding free energy change” -0.112 kcal/mol.
`L89I`: “binding free energy change” 0.509 kcal/mol.
`E72W`: “binding free energy change” 0.41 kcal/mol.
`S111P`: “binding free energy change” -0.121 kcal/mol.
`I103G` — result for “binding free energy change”: -0.0877 kcal/mol.
For `G32E`, “binding free energy change” read 0.288 kcal/mol.
`V61E` — result for “binding free energy change”: 0.43 kcal/mol.
Under “binding free energy change”, `T109R` is recorded as -0.323 kcal/mol.
Under “binding free energy change”, `V61W` is recorded as 1.61 kcal/mol.
Under “binding free energy change”, `R84G` is recorded as 0.406 kcal/mol.
For `E76Y`, “binding free energy change” read 0.188 kcal/mol.
Under “binding free energy change”, `M1D` is recorded as -0.193 kcal/mol.
`S22K` — result for “binding free energy change”: 0.205 kcal/mol.
`T9I`: “binding free energy change” 0.186 kcal/mol.
`F87C` — result for “binding free energy change”: 1.04 kcal/mol.
For `G3V`, “binding free energy change” read -0.0477 kcal/mol.
`G63S`: “binding free energy change” 0.215 kcal/mol.

A few entries again (study 4):
For `E44V`, the binding fitness was -1.4 natural log.
`N42E` gave a binding fitness of -1.46 natural log.
`E54N` has a binding fitness of -1.33 natural log.
For `K34H`, the binding fitness was -1.34 natural log.
The binding fitness of `L38I` is reported as -1.45 natural log.
`T37D` has a binding fitness of -1.44 natural log.
With `K36C` the binding fitness was -1.32 natural log.
With `S47D` the binding fitness was -1.36 natural log.
For `L38C`, the binding fitness was -1.5 natural log.
The binding fitness of `K39C` is reported as -1.44 natural log.
`Q41M` gave a binding fitness of -1.36 natural log.
With `S43Q` the binding fitness was -1.26 natural log.
